Published values from different studies.
Protocols differ between the studies behind these lines. ± marks the error that the study gave.

SMILES | cell line | test | setting | IC50
NC1CC1c1ccc(NC(=O)c2cccc(NC(=O)OCc3ccccc3)c2)cc1 (centres unmarked) | MV4-11 (AML) |  |  | 1.7 ± 0.02 µM
C[C@H]1[C@H](OC(=O)CCC(=O)OCCc2ccc(O)cc2)O[C@@H]2O[C@@]3(C)CC[C@H]4[C@H](C)CC[C@@H]1[C@@]24OO3 | RPMI-7951 | cell growth or viability, MTT | 24 h | 0.09 µM
CCN(CC)C1=[S+][Au-]2([S]1)[c]1ccccc1-c1cccc[c]12 | BT-333 glioblastoma | MTT | 72 h | > 100 µM
CC(C)C[C@H](NC(=O)[C@H](CC(C)C)NC(=O)[C@H](Cc1c[nH]cn1)NC(=O)[C@H](CCC(=O)O)NC(=O)[C@H](CC(C)C)NC(=O)[C@H](Cc1c[nH]cn1)NC(=O)[C@H](CCC(=O)O)NC(=O)[C@H](CC(C)C)NC(=O)[C@H](CC(C)C)NC(=O)[C@H](Cc1c[nH]cn1)NC(=O)[C@H](CCC(=O)O)NC(=O)[C@@H](N)CC(C)C)C(=O)N[C@@H](CCC(=O)O)C(=O)N[C@@H](Cc1c[nH]cn1)C(N)=O | RG | cell viability, MTT | 0.5 h, pH 7.4 | > 100 µM
Cc1ccc(C(c2c(C)nn(-c3ccccc3)c2O)c2c(C)nn(-c3ccccc3)c2O)cc1 | HEK293 | cell growth or viability, MTT | 48 h | > 40 µM
O=C(Cc1ccc2ccccc2c1)N[C@H](Cc1ccc(OP(=O)(O)O)cc1)C(=O)N[C@H](Cc1ccccc1)C(=O)N[C@H](Cc1ccccc1)C(=O)N[C@H](Cc1ccc(OP(=O)(O)O)cc1)C(=O)O | A2780cis | cell growth or viability, MTT |  | > 483 µg/mL
CCOP(=O)(OCC)OCCCCOC(=O)CC1=C(C)C(=Cc2ccc([S+](C)[O-])cc2)c2ccc(F)cc21 (centres unmarked) | A549 rho0 (mitochondria-deficient) | cell viability, trypan blue exclusion | 24 h | 124 µM
CC(C)C[C@H](NC(=O)[C@H](CCCCN)NC(=O)[C@H](CC(C)C)NC(=O)[C@H](CC(C)C)NC(=O)[C@H](CCCCN)NC(=O)[C@H](CCCCN)NC(=O)[C@H](CC(C)C)NC(=O)[C@H](CC(C)C)NC(=O)[C@H](CCCCN)NC(=O)[C@H](CC(C)C)NC(=O)[C@H](CC(C)C)NC(=O)[C@H](CCCCN)NC(=O)[C@H](CCCCN)NC(=O)[C@H](CC(C)C)NC(=O)[C@@H](N)CSSC[C@H](N)C(=O)N[C@@H](CC(C)C)C(=O)N[C@@H](Cc1c[nH]cn1)C(=O)N[C@@H](CCC(=O)O)C(=O)N[C@@H](CC(C)C)C(=O)N[C@@H](CC(C)C)C(=O)N[C@@H](CCC(=O)O)C(=O)N[C@@H](Cc1c[nH]cn1)C(=O)N[C@@H](CC(C)C)C(=O)N[C@@H](Cc1c[nH]cn1)C(=O)N[C@@H](CCC(=O)O)C(=O)N[C@@H](CC(C)C)C(=O)N[C@@H](CC(C)C)C(=O)N[C@@H](CCC(=O)O)C(=O)N[C@@H](Cc1c[nH]cn1)C(N)=O)C(N)=O | RG | cell viability, MTT | 0.5 h, pH 6.0 | 12.6 µM
CC[C@H](C)[C@H](NC(=O)[C@H](CCCNC(=N)N)NC(=O)[C@H](CCCNC(=N)N)NC(=O)[C@H](CCCNC(=N)N)NC(=O)[C@@H](NC(=O)[C@@H](NC(=O)[C@H](C)NC(=O)[C@H](CCCNC(=N)N)NC(=O)[C@H](CCCNC(=N)N)NC(=O)[C@H](CCCNC(=N)N)NC(=O)[C@@H]1CCCN1C(=O)[C@@H](N)CCCNC(=N)N)[C@@H](C)O)[C@@H](C)O)C(=O)N[C@H](C(=O)N[C@H](C(=O)NCC(=O)N[C@H](C(=O)N[C@@H](CCCNC(=N)N)C(=O)N[C@@H](CCCNC(=N)N)C(=O)N[C@@H](CCCNC(=N)N)C(=O)N[C@@H](CCCNC(=N)N)C(N)=O)[C@@H](C)O)[C@@H](C)O)[C@@H](C)O | BT-20 | cell viability, CellTiter-Blue | 24 h, serum-free medium | 88.8 ± 1 µM
O=C(Cc1ccc2ccccc2c1)N[C@H](Cc1ccc(O)cc1)C(=O)N[C@H](Cc1ccccc1)C(=O)N[C@H](Cc1ccccc1)C(=O)N[C@H](Cc1ccc(O)cc1)C(=O)O | A2780cis | cell growth or viability, MTT |  | > 500 µg/mL
C[C@H]1[C@H](OC(=O)CCC(=O)Oc2ccc(C(N)=S)cc2)O[C@@H]2O[C@@]3(C)CC[C@H]4[C@H](C)CC[C@@H]1[C@@]24OO3 | K562/Adr | cell growth or viability, CCK-8 | 72 h | 8.48 µM
CC[C@H](C)[C@@H]1NC(=O)[C@H](CCCNC(=N)N)NC(=O)C[C@H](c2cccc3ccccc23)NC(=O)[C@@H]2CSSC[C@H](NC(=O)C[C@H](c3cccc4ccccc34)NC(=O)[C@H](CCCNC(=N)N)NC(=O)[C@@H]3CCCN3C(=O)[C@@H]3CCCN3C1=O)C(=O)N[C@@H](Cc1ccccc1)C(=O)N1CCC[C@H]1C(=O)N[C@@H](CC(=O)O)C(=O)N[C@@H](CC(=O)O)C(=O)N[C@@H](Cc1ccccc1)C(=O)N2 | MCF7 (HER2-) | cell growth | 72 h | > 50 µM
[Cl][Au].[Se]=c1n(C2CCCCC2)ccn1C1CCCCC1 | A2780 | cell growth or viability, MTT | 72 h | 0.3 µM
CC(C)C[C@H](NC(=O)[C@H](CCCCN)NC(=O)[C@H](CC(C)C)NC(=O)[C@H](CC(C)C)NC(=O)[C@H](CCCCN)NC(=O)[C@H](CCCCN)NC(=O)[C@H](CC(C)C)NC(=O)[C@H](CC(C)C)NC(=O)[C@H](CCCCN)NC(=O)[C@H](CC(C)C)NC(=O)[C@H](CC(C)C)NC(=O)[C@H](CCCCN)NC(=O)[C@H](CCCCN)NC(=O)[C@@H](N)CC(C)C)C(N)=O | RG | cell viability, MTT | 0.5 h, pH 6.0 | 11.3 µM
C=C(C)CC(OC)C(O)C(=O)NC(OC)C1CC(OC(C)=O)C(C)(C)C(CC(O)C(C)C2Cc3c(C)c(O)cc(O)c3C(=O)O2)O1 (single isomer, unassigned; (+)) | IMR-90 | cell growth or viability |  | 0.027 µM
CC[C@@H](C)[C@@H](NC(=O)[C@@H](CCCCN)NC(=O)[C@@H](CC(C)C)NC(=O)[C@H](N)[C@H](C)O)C(=O)N[C@@H](C(=O)N[C@H](Cc1c[nH]c2ccccc12)C(=O)N[C@H](CS)C(=O)O)C(C)C | HEK293 tau K18 YFP biosensor | tau seeding, inhibitor | 24 h, together with: Alzheimer tau fibrils | 33.5 µM
C=C(C)CC(OC)C(O)C(=O)NC(OC)C1CC(OC(=O)c2ccccc2)C(C)(C)C(CC(O)C(C)C2Cc3c(C)c(O)cc(O)c3C(=O)O2)O1 (single isomer, unassigned; (-)) | A2058 | cell growth or viability |  | 0.0027 µM
Cc1cc(Oc2nc(N3CC[C@@H](c4ccncc4)C3)ncc2F)[nH]n1 | cancer cell lines | cell growth | 72 h, mean over lines | > 100 µM
Cc1cc(C)c(-n2ccn(-c3c(C)cc(C)cc3C)c2=[Se])c(C)c1.[Cl][Au] | A2780 | cell growth or viability | 72 h, 3D culture | 7.2 µM
O=C(O)c1ccc([PH]([Au][Cl])(c2ccccc2)c2ccccc2)cc1 | IMR-90 | cell growth or viability, resazurin | 72 h | 22.8 µM
CC(C)C[C@H](NC(=O)[C@H](CC(C)C)NC(=O)[C@H](CCC(=O)O)NC(=O)[C@H](CCC(=O)O)NC(=O)[C@H](CC(C)C)NC(=O)[C@H](Cc1c[nH]cn1)NC(=O)[C@H](Cc1c[nH]cn1)NC(=O)[C@H](CC(C)C)NC(=O)[C@H](CC(C)C)NC(=O)[C@H](CCC(=O)O)NC(=O)[C@H](CCC(=O)O)NC(=O)[C@@H](N)CC(C)C)C(=O)N[C@@H](Cc1c[nH]cn1)C(=O)N[C@@H](Cc1c[nH]cn1)C(N)=O | RG | cell viability, MTT | 0.5 h, pH 6.0 | > 100 µM
[Cl][Au-]1([Cl])[c]2ccccc2P(c2ccccc2)(c2ccccc2)=[N+]1c1ccccc1 | Jurkat | cell growth or viability, flow cytometry | 24 h | 2.57 µM
CC(C)C[C@H](NC(=O)[C@H](CCCCN)NC(=O)[C@H](CC(C)C)NC(=O)[C@H](CC(C)C)NC(=O)[C@H](CCCCN)NC(=O)[C@H](CCCCN)NC(=O)[C@H](CC(C)C)NC(=O)[C@H](CC(C)C)NC(=O)[C@H](CCCCN)NC(=O)[C@H](CC(C)C)NC(=O)[C@H](CC(C)C)NC(=O)[C@H](CCCCN)NC(=O)[C@H](CCCCN)NC(=O)[C@H](CC(C)C)NC(=O)[C@@H](N)CSSC[C@H](N)C(=O)N[C@@H](CC(C)C)C(=O)N[C@@H](CCC(=O)O)C(=O)N[C@@H](Cc1c[nH]cn1)C(=O)N[C@@H](CC(C)C)C(=O)N[C@@H](CC(C)C)C(=O)N[C@@H](CCC(=O)O)C(=O)N[C@@H](Cc1c[nH]cn1)C(=O)N[C@@H](CC(C)C)C(=O)N[C@@H](CCC(=O)O)C(=O)N[C@@H](Cc1c[nH]cn1)C(=O)N[C@@H](CC(C)C)C(=O)N[C@@H](CC(C)C)C(=O)N[C@@H](CCC(=O)O)C(=O)N[C@@H](Cc1c[nH]cn1)C(N)=O)C(N)=O | HK-2 | cell growth or viability, MTT | pH 6 | 12.2 µM
CC(C)C[C@H](NC(=O)[C@H](CC(C)C)NC(=O)[C@H](CC(=O)O)NC(=O)[C@H](CCCCN)NC(=O)[C@H](Cc1ccccc1)NC(=O)CN)C(=O)N[C@@H](CCCCN)C(=O)N[C@H]1CSCc2ccccc2CSC[C@@H](C(=O)N[C@@H](CC(C)C)C(=O)N[C@H](C(=O)N[C@@H](CCCCN)C(=O)N[C@H](C(=O)N[C@H](C(=O)N[C@@H](CC(C)C)C(=O)N[C@@H](Cc2ccccc2)C(N)=O)C(C)C)[C@@H](C)O)C(C)C)NC(=O)[C@H](CCCCN)NC(=O)[C@H](C)NC(=O)[C@H](C)NC1=O | U87 | cell proliferation, CCK-8 | 48 h | 4.63 µM
Cc1cc(C)c(N2CCN(c3c(C)cc(C)cc3C)C2=[Se])c(C)c1.[Cl][Au] | LoVo MDR | MTT | 72 h | 3 ± 0.4 µM
Cc1cc(Nc2nc(C[C@@]3(C(=O)O)CCN(Cc4cccc(Cl)c4F)[C@H](C)C3)cc(C)c2F)[nH]n1 | sensitive breast cancer lines | cell proliferation | mean | 0.0504 µM
C=C(C)C[C@H](OC)[C@H](O)C(=O)N[C@@H](OC)[C@@H]1C[C@H](O)C(C)(C)[C@@H](C[C@H](O)[C@@H](C)[C@H]2Cc3c(C)c(O)cc(O)c3C(=O)O2)O1 | IMR-90 | cell growth or viability |  | 0.034 µM
COc1cccc2c1cc([N+](=O)[O-])c1c(C(=O)O)cc3c(c12)OCO3 | HK-2 |  |  | 102 µM
CC[C@H](C)[C@@H]([C@@H](CC(=O)N1CCC[C@H]1[C@H](OC)[C@@H](C)C(=O)N[C@H](C)[C@@H](O)c1ccccc1)OC)N(C)C(=O)[C@@H](NC(=O)[C@@H](NC)C(C)C)C(C)C | LNCaP | cell growth or viability, MTT | 72 h | 0.00106 µM

Some of these lines once more:
SMILES | cell line | test | setting | IC50
CC(C)C[C@H](NC(=O)[C@H](CCCCN)NC(=O)[C@H](CC(C)C)NC(=O)[C@H](CC(C)C)NC(=O)[C@H](CCCCN)NC(=O)[C@H](CCCCN)NC(=O)[C@H](CC(C)C)NC(=O)[C@H](CC(C)C)NC(=O)[C@H](CCCCN)NC(=O)[C@H](CC(C)C)NC(=O)[C@H](CC(C)C)NC(=O)[C@H](CCCCN)NC(=O)[C@H](CCCCN)NC(=O)[C@@H](N)CC(C)C)C(N)=O | RG | cell viability, MTT | 0.5 h, pH 6.0 | 11.3 µM
C=C(C)CC(OC)C(O)C(=O)NC(OC)C1CC(OC(C)=O)C(C)(C)C(CC(O)C(C)C2Cc3c(C)c(O)cc(O)c3C(=O)O2)O1 (single isomer, unassigned; (+)) | IMR-90 | cell growth or viability |  | 0.027 µM
CC[C@@H](C)[C@@H](NC(=O)[C@@H](CCCCN)NC(=O)[C@@H](CC(C)C)NC(=O)[C@H](N)[C@H](C)O)C(=O)N[C@@H](C(=O)N[C@H](Cc1c[nH]c2ccccc12)C(=O)N[C@H](CS)C(=O)O)C(C)C | HEK293 tau K18 YFP biosensor | tau seeding, inhibitor | 24 h, together with: Alzheimer tau fibrils | 33.5 µM
